Measurements pooled from the literature.
Each numbered part is a random draw from the data of one study; scales do not carry over between parts.

Block 1
Target: Ras GTPase-activating protein-binding protein 1, RRM domain (G3BP1, Homo sapiens, UniProt Q13283)
UniProt Q13283, sequence (whole entry, looked up): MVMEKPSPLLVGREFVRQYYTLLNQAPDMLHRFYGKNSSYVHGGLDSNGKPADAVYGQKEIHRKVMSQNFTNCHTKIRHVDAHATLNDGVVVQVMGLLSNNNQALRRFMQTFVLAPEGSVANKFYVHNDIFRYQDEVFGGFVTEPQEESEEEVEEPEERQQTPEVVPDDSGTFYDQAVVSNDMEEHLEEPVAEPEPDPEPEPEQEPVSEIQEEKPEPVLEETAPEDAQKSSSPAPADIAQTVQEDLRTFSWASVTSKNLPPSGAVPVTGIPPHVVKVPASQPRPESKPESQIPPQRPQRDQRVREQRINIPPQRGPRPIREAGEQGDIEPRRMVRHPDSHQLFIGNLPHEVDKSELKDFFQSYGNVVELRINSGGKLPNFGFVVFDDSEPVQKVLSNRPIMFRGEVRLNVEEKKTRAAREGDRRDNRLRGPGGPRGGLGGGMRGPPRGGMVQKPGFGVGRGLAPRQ
Method: RNA Bind-n-Seq
Form: RNA
Matrix: in vitro
Tested at: 1 µM
Setting: whole 134-nt RNA, ends assumed
With: 150 mM KCl
Reference: input library
Reading: higher = stronger binding
Shared flanks, not repeated: GGGAGUUCUACAGUCCGACGAUC … UGGAAUUCUCGGGUGUCAAGG
Oligonucleotide	log2 enrichment
UAACUUUAGAGGAGGAUCUGAUGGAUAUGGCAGUGGACGUGGAUUUGGGGAUGGCUAUAAUGGGUAUGGAGGAGGACCCGGAGGUGGCAA	-0.374
UCCUGUGCUACACAUCGUAUGUACCGAAUCGGGUUUUUUUGGGUUUGGGAAAAAAAGGGAAAGUAUUAUGUUACGCCGUUCGGAUCUGCA	-0.0749
UCCUGUGCUACACAUCGUAUGUACCGAAUCGGGGUUUUUUUGGGGUUUGGGGAAAGGGGAAAGUAUUAUGUUACGCCGUUCGGAUCUGCA	0.624
UCAAGUCCUGUGCUACACAUCGUAUGUACCGAAUCGGGUUUUUGGGUGGGUGGGAAAGUAUUAUGUUACGCCGUUCGGAUCUGCACUUCC	0.298
UGGCCCUGGUGGCAUGCGGGGAGGAAGAGGUGGCCUCAUGGAUCGUGGUGGUCCCGGUGGAAGGUUCAGAGGUGGCCGUGGUGGAGACAG	0.686
CUCAAGUCCUGUGCUACACAUCGUAUGUACCGAAUCGGGGAGGGGAGGGGAGGGAAAGUAUUAUGUUACGCCGUUCGGAUCUGCACUUCC	0.894
AGUCCUGUGCUACACAUCGUAUGUACCGAAUCGGUUUUUGGUUUUUGGGGUUUUUGGAAAGUAUUAUGUUACGCCGUUCGGAUCUGCACU	-0.0945
UAACUUUAGAGGAGGAUCUGAUGGAUAUGGCAGUGGACGUGGAUUUGGGCAUGGCUAUAAUGGGUAUGGAGGAGGACCUGGAGGUGGCAA	-0.54
UCAAGUCCUGUGCUACACAUCGUAUGUACCGAAUCGGGUUUGGGAGGGUUUGGGAAAGUAUUAUGUUACGCCGUUCGGAUCUGCACUUCC	0.574

Block 2
Target: Interferon regulatory factor 7, full length, phosphomimetic (IRF7, Homo sapiens, UniProt Q92985, residues 1-503, S471D/S472D/S475D/S476D/S477D/S483D/S484D/S487D)
Method: protein-binding microarray
Form: double-stranded DNA, one strand shown
Matrix: in vitro
Tested at: 2200 nM top
Setting: 60-bp whole probe
With: salmon DNA 0.4 mg/ml
Reference: random background probes
Reading: higher = stronger binding
Shared flanks, not repeated: GCCTAGCAC … GTCTTGATTCGCTTGACGCTGCTG
Construct (chain): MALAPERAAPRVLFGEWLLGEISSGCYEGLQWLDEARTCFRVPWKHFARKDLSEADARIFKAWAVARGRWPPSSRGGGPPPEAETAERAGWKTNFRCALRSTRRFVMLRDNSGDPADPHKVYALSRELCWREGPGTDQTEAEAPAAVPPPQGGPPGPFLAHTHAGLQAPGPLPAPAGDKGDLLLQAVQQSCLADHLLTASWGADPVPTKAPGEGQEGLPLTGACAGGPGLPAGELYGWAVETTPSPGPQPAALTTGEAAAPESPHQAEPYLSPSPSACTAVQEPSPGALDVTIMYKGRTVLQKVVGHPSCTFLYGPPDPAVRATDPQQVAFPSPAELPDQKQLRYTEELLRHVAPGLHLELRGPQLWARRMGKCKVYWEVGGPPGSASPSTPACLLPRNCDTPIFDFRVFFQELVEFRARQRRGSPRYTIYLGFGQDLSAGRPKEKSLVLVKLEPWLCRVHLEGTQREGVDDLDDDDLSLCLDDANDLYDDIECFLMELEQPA
Oligonucleotide	fitted relative affinity
TTTATTTTTTTTATTTATAAGTGCTAG	1.77 z-score
TTAGATAACAGTCTCGATTAGTGCTAG	-0.0746 z-score
GACGAAATCAGACTGGAGACGTGCTAG	-0.0109 z-score
GTCCTCCTCTCTCTTTCCACGTGCTAG	3.13 z-score
TCACTTCACCTCTCTGTCACTGTGCTA	2.72 z-score
TTAGGTTTCAGGTATCGGTTAGTGCTA	3 z-score
GACGGTTTCGACACTGGGGGCGTGCTA	3.08 z-score
GAGTTTCTATTTTCTGAATGGTGCTAG	6.23 z-score
TCAACTTTCTTTTGCTTACTGTGCTAG	2.74 z-score
TTAGGTAACGGTCTCGGTTAGTGCTAG	0.114 z-score
TTAGGTGTCGGTTTCGGTTAGTGCTAG	6.04 z-score
TTTGTAATCGAAATCTTCATGTGCTAG	0.701 z-score
GACGGTCTCGGTTTCGGGAAGTGCTAG	2.68 z-score
GACGGTCTCCTTTTCCTCACGTGCTAG	1.48 z-score
TTAGATTTCGGGTTCCGATTAGTGCTA	4.85 z-score
GACGGTATCGGCACTGGGGACGTGCTA	-0.675 z-score
TCAGTTTTCTAAACCATACTGTGCTAG	2.06 z-score
TAAGATTTCAGACTGGATTAGTGCTAG	-0.14 z-score
TTAGGTTTCCTTATCCCTTAGTGCTAG	2.5 z-score

Block 3
Target: Sal-like protein 4, full length isoform A (SALL4, Homo sapiens, UniProt Q9UJQ4, residues 1-1053)
UniProt Q9UJQ4, sequence (whole entry, looked up): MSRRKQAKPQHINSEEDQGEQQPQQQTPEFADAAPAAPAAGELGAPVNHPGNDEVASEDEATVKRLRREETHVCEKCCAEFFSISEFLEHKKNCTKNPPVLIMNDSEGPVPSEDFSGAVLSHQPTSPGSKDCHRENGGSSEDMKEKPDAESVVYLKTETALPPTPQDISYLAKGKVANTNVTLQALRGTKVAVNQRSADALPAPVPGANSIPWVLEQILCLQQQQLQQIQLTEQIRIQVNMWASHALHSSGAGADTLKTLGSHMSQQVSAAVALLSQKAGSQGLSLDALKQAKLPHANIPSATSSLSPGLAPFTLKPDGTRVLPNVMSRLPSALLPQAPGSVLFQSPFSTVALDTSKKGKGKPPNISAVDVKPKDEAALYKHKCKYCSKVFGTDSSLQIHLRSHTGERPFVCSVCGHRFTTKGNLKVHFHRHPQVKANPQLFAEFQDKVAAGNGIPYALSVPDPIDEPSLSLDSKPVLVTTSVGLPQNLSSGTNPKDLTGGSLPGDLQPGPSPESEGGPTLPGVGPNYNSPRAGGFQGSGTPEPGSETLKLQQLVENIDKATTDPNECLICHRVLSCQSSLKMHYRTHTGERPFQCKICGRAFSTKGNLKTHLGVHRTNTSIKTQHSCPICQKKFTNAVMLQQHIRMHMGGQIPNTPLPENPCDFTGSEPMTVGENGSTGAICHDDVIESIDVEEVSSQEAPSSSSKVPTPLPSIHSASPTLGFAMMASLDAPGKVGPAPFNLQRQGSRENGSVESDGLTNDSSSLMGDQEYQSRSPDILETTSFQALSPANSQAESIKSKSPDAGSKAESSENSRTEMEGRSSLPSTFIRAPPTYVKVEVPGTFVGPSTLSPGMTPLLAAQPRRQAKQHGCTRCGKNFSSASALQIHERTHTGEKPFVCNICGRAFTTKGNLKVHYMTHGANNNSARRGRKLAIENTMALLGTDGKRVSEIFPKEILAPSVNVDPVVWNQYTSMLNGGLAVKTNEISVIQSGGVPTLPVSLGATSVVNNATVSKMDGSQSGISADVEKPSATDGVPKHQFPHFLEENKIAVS
Method: universal PBM
Form: double-stranded DNA, one strand shown
Matrix: in vitro
Tested at: 600 nM
Setting: 8-mer, flanks averaged, mean of replicates
Reading: higher = stronger binding
Oligonucleotide	E-score
GACCACGC	-0.216
TAGGTTGA	0.000865
GCTCCGTA	-0.114
AAGGCCGG	-0.242
GTACTCAC	0.015
CCAAATTC	0.075
GTGCGTGA	-0.119
CTTCCGCC	-0.134
CGGAATAG	-0.0999
CCACTCTC	-0.199
AGACTCGC	-0.22
GGCACAAC	-0.0139
ATATTGGA	0.273
GGGCGTAC	-0.173
CGTTTCGC	-0.205
GAGGGCGC	-0.332
AGTGATCG	-0.0463
CATACGCA	0.148
CCCGGCAG	-0.354
AAGCTCCT	-0.105

Block 4
Target: RNA binding protein fox-1 homolog 2, RRM domain, GST-SBP tag (RBFOX2, Homo sapiens, UniProt O43251-10, residues 100-194)
Method: RNA Bind-n-Seq
Form: RNA
Matrix: in vitro
Tested at: 365 nM
Setting: natural RNA segment, single round, ends assumed
Reference: no-protein control
Reading: higher = stronger binding
Shared flanks, not repeated: GGGAGUUCUACAGUCCGACGAUC … UGGAAUUCUCGGGUGCCAA
Residues (chain): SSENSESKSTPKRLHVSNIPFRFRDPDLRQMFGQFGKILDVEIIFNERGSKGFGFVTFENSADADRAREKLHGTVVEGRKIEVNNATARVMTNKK
Oligonucleotide	RBNS enrichment (R)
GUGUCCAUCUCUUAGUUAGCUACCUUAACUGUCCACCCUUACUACCUGUGGGAUCGUUGCCUGGUUUGUCUUCUCUGUGUCCUGGAGCAAAGCCAGUUCCUAAAACUAAA	0.434
AUCUCGGCUCACUGCAACCUCCGCCUCCUUGGUUCCAGCAAUUCUUCUGCCUCAGCCUCCCGAGUAGCUGGGACUACAAGCGGCUGCCACCACACCUGGCUAUUUUUUUU	0.213
UCACUCUGCCAGAGUAUGACUUUUUACAGAUUAUUAAAUAAAGCUGCAUAUGUCUCAUUGUUACCUGUUGCUGGUGUUAUUUCUUUCAAGCCAUUCACUGGGGUUCAGGG	0.448
GACCUUUCAUCUUUCACGAACUUGAUCCUGUUAGCAGGUGGUAAUACCAUGGGUGCUGUGACACUAACAGUCAUUGAGAGGUGGGAGGAAGUCCCUUUUCCUUGGACUGG	0.425
UAUUGAUUCUUCCUACCCAAGAGCAUGGAAUGUUCUUCCAUUUGUUUGUAUCCUCUUUUAUUUCCUUGAGCAGUAGCUUGUAGUUCUCCUUGAAGAGGUCCUUCACAUCC	3.57
CUUAGUGUGCUCAACUACAGAGAUAGCCGCUGCUGAGUGAUGUAGAUUUUCUACUUGAAUAUUUUUAUGUUGUAGGAACCUCAGGAGGUCAGUGUUUACUGUUUUAUAUA	0.551
AUCAGAAGAUCACUUAGACAACAUCUGAUAUUAAUGUGAUUCUUGCAUUCAAGACACUUGCAAAUGUCUUUUUCUAAGCAGUAGUUAGAAAGAGCUCAAUUAUAGUAUUA	0.435
GGCUGCCAGAAUCAGCGGAUGCUGGAUGGGCCUGCAGAAACAACACUCACCACACACACUUCCUUCAAAAGACCAAAAGUGACUGGUGUCUCGUGUGACAGAUUGCUUCA	0.355

A few entries again (block 1):
Oligonucleotide	log2 enrichment
UCAAGUCCUGUGCUACACAUCGUAUGUACCGAAUCGGGUUUUUGGGUGGGUGGGAAAGUAUUAUGUUACGCCGUUCGGAUCUGCACUUCC	0.298
UGGCCCUGGUGGCAUGCGGGGAGGAAGAGGUGGCCUCAUGGAUCGUGGUGGUCCCGGUGGAAGGUUCAGAGGUGGCCGUGGUGGAGACAG	0.686
CUCAAGUCCUGUGCUACACAUCGUAUGUACCGAAUCGGGGAGGGGAGGGGAGGGAAAGUAUUAUGUUACGCCGUUCGGAUCUGCACUUCC	0.894
AGUCCUGUGCUACACAUCGUAUGUACCGAAUCGGUUUUUGGUUUUUGGGGUUUUUGGAAAGUAUUAUGUUACGCCGUUCGGAUCUGCACU	-0.0945
UAACUUUAGAGGAGGAUCUGAUGGAUAUGGCAGUGGACGUGGAUUUGGGCAUGGCUAUAAUGGGUAUGGAGGAGGACCUGGAGGUGGCAA	-0.54
